Results collected from several papers.
Lines come from different studies, so protocols differ. ± marks the error that the study gave.

CC[C@H](C)[C@H](NC(=O)[C@@H](NC(=O)c1ccnc(Cl)c1Cl)C(C)(C)C)C(=O)N[C@H](C(=O)N[C@H](C(=O)N[C@H](C(=O)N[C@@H](CCC(N)=O)C(=O)N[C@@H](Cc1c[nH]cn1)C(=O)N[C@H](CC(C)C)C(=O)N[C@@H](CO)C(=O)NCCOCCOCC(=O)N[C@@H](CCCCNC(=O)CC[C@@H]1NC(=O)[C@@H](CCCNC(=N)N)NC(=O)[C@H](CCCNC(=N)N)NC(=O)[C@@H](CCCNC(=N)N)NC(=O)[C@H](CCCNC(=N)N)NC(=O)[C@H](Cc2ccc3ccccc3c2)NC(=O)[C@@H](Cc2ccccc2)NC1=O)C(N)=O)[C@@H](C)O)[C@@H](C)CC)C(C)(C)O  BALF protein level (mouse, acute lung injury, LPS-induced; intranasal, 3 mg/kg, 6 h, added: LPS 4 mg/kg intranasal; relative to: vehicle): decreased
CC(=O)[O-].O.O.O.O.[Ni+2].[O-]c1ccc(Br)cc1C=NCCN1CCOCC1  inhibition (DPPH radical scavenging; 200 µM): 50.4%
CO.Cc1ccc2c(Cl)cc(Cl)c([O-])c2n1.Cc1ccc2c(Cl)cc(Cl)c([O-])c2n1.[Co+2].c1ccc2nc3c4cccnc4c4ncccc4c3nc2c1  tumour volume (nude mouse, HeLa xenograft; 2.0 mg/kg, start of treatment): 82.4 ± 27 mm3
CN1CCC[C@]1(C)/C=C/S(=O)(=O)NC(=O)Nc1c2c(cc3c1CCC3)CCC2  IL-1β inhibition (human, whole blood ex vivo; 12.5 mg twice daily, day 1, 6 h, multiple ascending dose, added: LPS and ATP): 96.7%
COC1CN([C@H]2CC[C@H]([C@@]3(C)Oc4c(Cl)cc(C(=O)NCc5c(SC)cc(C)[nH]c5=O)c(C)c4O3)CC2)C1  log2 fold change (RNA-seq, item: ZNF704 mouse homolog; mouse, HT-1376 xenograft, whole blood; dose not given; relative to: vehicle): 0.329
COc1ccc(C(=O)CCc2cc(C(CCc3ccc(O)cc3OC)c3ccc(O)cc3)c(O)cc2OC)cc1 (racemic)  5-HEPE level (human blood; 1 µM, added: A23187): 131 ± 44 pg/mL
COc1ccccc1-c1ccncc1C(=O)Nc1nnc(OCc2ccc(Cl)cc2)s1  colony survival (Brca1 Δ11/Δ11 Polq-/- MEF, Mus musculus; 5 µM; relative to: 0 µM): 90.3%
CC(C)c1ccc(N(C)c2ccc3c(c2)OCC[C@H]3CNc2cnccc2C(=O)O)cc1  tumour growth inhibition (mouse, OCI-LY19 xenograft; 5 mg/kg QD, day 21): 55%
COc1ccc2cc3[n+](cc2c1OCCCOC(=O)c1cscn1)CCc1cc2c(cc1-3)OCO2  plasma triglyceride reduction (hyperlipidemic hamster; oral gavage, 24 mg/kg daily, 3 weeks): 61.3%
COc1cc(O)ccc1CCC(c1ccc(O)cc1)c1cc2c(c(C)c1O)OC(c1ccc(O)cc1)CC2 (mixture of isomers)  5-HEPE level (human blood; 1 µM, added: A23187): 107 ± 27 pg/mL
